Results collected from several papers.
Parts stem from different laboratories: compare values within a part only. Changes are numbered by the printed parent chain.

Block 1
Target: Histone acetyltransferase KAT6A, winged helix 1, GST fusion (KAT6A, Homo sapiens, UniProt Q92794, residues 1-85)
Method: protein binding microarray
Molecule type: double-stranded DNA, one strand shown
Matrix: in vitro
Concentration: not given
Notes: 8-mer, flanks averaged, mean of 2 arrays, mostly near background
Baseline: not given
Direction: higher = stronger binding
Target sequence (chain): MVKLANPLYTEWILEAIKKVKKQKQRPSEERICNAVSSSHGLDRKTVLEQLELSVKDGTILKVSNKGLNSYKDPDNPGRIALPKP
`AGGCGGCG` gave an E-score of 0.398.
The E-score of `ACAAGATA` is reported as -0.164.
The E-score of `GGACCAAA` is reported as -0.22.
`GGACCCAC` has an E-score of -0.0565.
With `CGCAACTA` the E-score was 0.076.
The E-score of `GCGTTGTA` is reported as 0.102.
`ATAAAACA` has an E-score of -0.0918.

Block 2
Target: Centromere-binding protein 1, full length, N-terminal tag (CBF1, Saccharomyces cerevisiae, UniProt P17106, residues 1-351)
UniProt P17106, sequence (whole entry, looked up): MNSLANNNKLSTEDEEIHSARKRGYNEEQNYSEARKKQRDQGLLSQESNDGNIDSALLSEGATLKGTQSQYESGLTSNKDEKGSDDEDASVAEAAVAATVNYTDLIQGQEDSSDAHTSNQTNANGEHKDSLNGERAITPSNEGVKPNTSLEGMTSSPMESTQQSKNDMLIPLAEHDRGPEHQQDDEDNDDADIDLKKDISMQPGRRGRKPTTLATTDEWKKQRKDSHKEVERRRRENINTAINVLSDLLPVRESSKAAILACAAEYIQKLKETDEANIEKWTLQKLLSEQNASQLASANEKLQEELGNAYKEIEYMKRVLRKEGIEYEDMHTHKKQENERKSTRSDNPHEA
Method: protein-binding microarray
Molecule type: double-stranded DNA, one strand shown
Matrix: in vitro
Concentration: 0.8 µM
Notes: whole 60-bp probe, no competitor
Direction: higher = stronger binding
Constant ends, left off below: … GTCTTGATTCGCTTGACGCTGCTG
For `TGTACGAAGCTATACGTGCGGGCTATAGTAGTTAGG`, the fluorescence intensity was 522 a.u.
The fluorescence intensity of `CTATGTTCTTTCCATCACGAAAGTGACTTCATTTTC` is reported as 597 a.u.
For `GAATTATAATATGGTTCACGTGCGCTTCATCTTTAG`, the fluorescence intensity was 4220 a.u.
For `CTAAAAAAGTAAAGTAACGTGAGAATGTCTGATTTC`, the fluorescence intensity was 653 a.u.
`TGTACGAAGCTATGTCACGTACCTATAGTAGTTAGG` has a fluorescence intensity of 766 a.u.
`GAATCCTATCTTTATCTCACCTGTTTGAGGGAATAG` has a fluorescence intensity of 550 a.u.
For `CTATGGGTAGAGCGGCACATGGATGTAACAATCTTC`, the fluorescence intensity was 564 a.u.

Block 3
Target: CCNB3, cyclin fold, Cln2 fusion (human)
Method: yeast growth competition, sequencing
Matrix: yeast
Notes: weak parent motif
Baseline: not given
Direction: higher = stronger binding
Parent: RB1 docking peptide (human); PKPLKKLRFDIEG; partner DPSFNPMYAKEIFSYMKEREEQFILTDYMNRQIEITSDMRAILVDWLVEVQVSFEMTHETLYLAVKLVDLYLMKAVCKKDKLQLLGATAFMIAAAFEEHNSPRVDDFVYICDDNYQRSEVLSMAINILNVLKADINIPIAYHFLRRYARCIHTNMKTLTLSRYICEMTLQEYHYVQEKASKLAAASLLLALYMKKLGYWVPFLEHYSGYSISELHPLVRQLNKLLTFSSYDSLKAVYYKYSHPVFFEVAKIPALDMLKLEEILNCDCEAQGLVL
`G13D` — result for “normalised enrichment score”: 0.134.
`K5M`: “normalised enrichment score” 0.237.
Under “normalised enrichment score”, `K2T` is recorded as -0.24.
`I11N`: “normalised enrichment score” 0.472.
Under “normalised enrichment score”, `F9S` is recorded as -0.00763.
For `I11G`, “normalised enrichment score” read -0.0443.
Under “normalised enrichment score”, `P1V` is recorded as -0.0765.

Single results of other studies
`PhoQ, residues 284 288 289 292 302 303 HSYLQF` gave a fold induction of 2.58 (PhoP, residues 12 14 15 18 19 NQGLL (Escherichia coli, UniProt P23836); Sort-seq, refers to: YFP reporter; E. coli; PhoQ-PhoP variant library, together with: 10 µM Mg2+; baseline: high Mg2+ state, higher = stronger signaling).

Excerpt of the above (block 2):
`TGTACGAAGCTATGTCACGTACCTATAGTAGTTAGG` has a fluorescence intensity of 766 a.u.
